Measured values collected from several papers.
Parts stem from different laboratories: compare values within a part only. Positions count from the first letter of the parent shown.

Set 1
Target: RING finger protein unkempt homolog, zinc fingers 1-6, GST-SBP tag (UNK, Homo sapiens, UniProt Q9C0B0, residues 30-357)
Method: RNA Bind-n-Seq
Form: RNA
Matrix: in vitro
Tested at: not given
Setting: RNA with constant flanks, ends assumed
Relative to: input RNA pool
Reading: higher = stronger binding
Shared flanks, not repeated: GGGAGUUCUACAGUCCGACGAUC … CAACAGAGGAUUGAGCAUCA
Construct (chain): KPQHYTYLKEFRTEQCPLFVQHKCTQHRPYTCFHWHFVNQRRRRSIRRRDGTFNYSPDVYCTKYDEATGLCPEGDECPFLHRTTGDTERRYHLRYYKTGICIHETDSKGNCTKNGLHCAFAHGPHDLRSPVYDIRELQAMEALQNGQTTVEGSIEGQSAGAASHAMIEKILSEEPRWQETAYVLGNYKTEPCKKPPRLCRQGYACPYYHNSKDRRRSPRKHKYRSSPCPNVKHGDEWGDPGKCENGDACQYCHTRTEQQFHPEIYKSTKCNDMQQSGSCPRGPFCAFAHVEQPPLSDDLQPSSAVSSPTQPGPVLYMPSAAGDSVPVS
Sequence | bound/input enrichment [ratio]
GUCAUUGUCAUUCCGCAGUCCUCUCUCUCCACCAAUGCUGUUGUGGUGGAUCUUGGGCUAAUCCGAGUUCACAAUCGGUUCAGUCUGGUGUCUGGAGAAGACACUGCAAAUCCUCCAGUG | 0.103
GCAUGUUCUUAUGGACAUUAUGAAGUUGCAGAACUUCUUGUUAAACAUGGAGCAGCCGUUAAUGCCGCUGAUUUAUGGAAAUUUACACCUUUACAUGAAGCAGCAGCAAAAGGAAAAUAU | 0.103
GGGAGGAAUGAAUUUAUCUAGCAAGCUGGCCCAGCUCACUUGUCAUGGCAAUCUUUGCCACCGCUUUCAGUCUUUCAACACUUCCUACACAGAUACAGGAUUAUGGGGACUGUAUAUGGU | 0.287
ACGUGAUUUGGAGAGAGGUGUGGAAAUCUGUAUUGCAACACCUGGAAGACUGAUUGACUUUUCCGAGUGUGGAAAAACCAAUCUGAGAAGAACAACCUACCUUGUCCUUGAUGAAGCAGA | 0.131
GAAUAUGUGGCAAUCAAAACCAAGAAACGAAUCUUGCUGUACACCAUGAACCCCAACAAAUUCCGAGCUUGCCAGUUUCUGAUCAAGUUUCAUGAAAGGAGGAAUGACAAGAUUAUUGUC | 0.122
CGAGUGGAUCAGGGGGCUGCAACAGCUCUCAGAAAGGAGAAUACCAGCAACAUCUUUUACCGCAAAAAUACUGACUAUCCUGAACUUCAGCAGCAAAACACAGAUUCAAAUUACCAGACC | 0.275
AGGACCUAUUCCAAUAGGCUCUUGGUGUUUCCCAUAUCAAGAUUUCUGCUAGCUAAUGCACCGAGGGAAUACUGUCUAAAAAUAGACCCUUUCUUCCCAAAGGUUGGGAGGUGGGACCUG | 0.324
GUAGUUUGUUGUUUAAAAUAAUGUAAUCAUCAAAAUGAUACACAUGUUACACUACUAUUAACCCGGCUUCAAUAUAUCAGUGUUUAUUUCAUUGUGUUAAAUGUAUACUUGUAAAUAAAA | 0.373
CGGACUGCUGGAGAUGGUGGAGUCCGUCAUGCCGGUGGUGGUGUGCACAUUGAGCCCCGGUACCGACAGUUCCCCCAGCUGACCAGAUCCCAGGUGUUCCAGAGCGAGUUCUUCAGCGGA | 0.059
UUGGAAUUAAUAAAGCAGUUGACAUUCACUGUUAGUUACAGCAACAUACUGUGAUUUUUAAUCCGACCGUAAUUCAGAUUUAUUACUCUAUGAAAUUCUGUCUUUUGACACCAUAGUGCC | 0.251
GGGUGGUGGGUGUGUGUGUGUGUGUGUGUGUGUGUGUGUGUGUGUGUGUUUGGCUGUGGGUCCGUUGUGCCGUUCUGCUGGAACACCGUGGGAAGGCAGUAGACGCGGGCAGUCAGCUAG | 0.531

Set 2
Target: RNA binding protein fox-1 homolog 2, RRM domain, GST-SBP tag (RBFOX2, Homo sapiens, UniProt O43251-10, residues 100-194)
Method: RNA Bind-n-Seq
Form: RNA
Matrix: in vitro
Tested at: 365 nM
Setting: natural RNA segment, single round, ends assumed
Relative to: no-protein control
Reading: higher = stronger binding
Shared flanks, not repeated: GGGAGUUCUACAGUCCGACGAUC … UGGAAUUCUCGGGUGCCAA
Target sequence (chain): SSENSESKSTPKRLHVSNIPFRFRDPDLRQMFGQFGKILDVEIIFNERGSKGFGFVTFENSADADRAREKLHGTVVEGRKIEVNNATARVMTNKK
Sequence | RBNS enrichment (R)
GUCACGGUACAGUGUUAAUUCACGCCUGUGUGUGUAACAGGACACUCAGCAAUUAUCUUAAGAACACACAGCAGCAUUGACGUGUAGAAAGAGAAUAGUAAAUGCCUUUG | 0.474
AUCCAUAAACUAAGAGAAACUGUGUAUAGCUUACCUGAACAGGAAUCCUUACUGAUAUUUAUAGAACAGUUGAUUUCCCCCAUCCCCAGUUUAUGGAUAUGCUGCUUUAA | 0.463
AUCUCAGGAGGCAGCCUUCCUGACCAAGUGUGUUUGACAUGGAGCGCCCUGUGGUGCCCACCUCCAACCCUCCAGUCUCCUGGUGUUCAUCUGGGCAUGUCUGCACAAGC | 0.246
AGGUCCAGAUAAAUGAGGGUUAUCAGCUAACUGAUAUGUUAUCAUUGAGGUUCGUCAAUGAAUUUGUACAUUUCUAGUUCCCUUUGGUGAAGGGAAAAAUGAUUUUGCAA | 0.526
AGGCAGUGCUGUUCUGCCCACCUACCCCUCUCCACCAGCCUACACUGCACCCUGGCUGGCAGGGGUGCUGCUGGCUGCUAGGGCCUAUACAAUGGAGGGCACCUCCUGUC | 0.619
UAAUGCCAAAUGCUCUUUAGUAAAAUGCUGAAUUACGGUGUUUUUUUUUUUUUUGCAUCAUUUGUCUUUAAUAUUCAUAAUGUCAUGUGCUUAAAAGUGAGCUUGAAACG | 0.428
UGAGAGCGCCAAGGGUCUUUGCCAGCAAAGGAGGUUCUGCCUGUAAUUGAGCCUCUCUGAUGAUGGAGAUGAAGUGAAGGUCUGAGGGAGCGGGCCCUGGGGCGAGGCCA | 4.09
ACCCAGGGGUGGUGGUCCCAGCCAGUUUGGUGCUGACGGUGAGAGGAAAUUAGAAUCUGUUUGCAAAUUGUCCAACCCACCCCCUCAACAUGAGGGGCUUCCAUUUUCUG | 0.834
GUCUGUGGUUAACACCCUGGGAUAAUUGUGAUGGGCAGAUGCGCAGUAAUGGCCUGUGUUGGUAACAAUAUUAUCUAGUUCAAUGCCAUGCAGUAGCAUUGUAUAGCAAC | 0.388
AAUAAUUUGUGGACCAGGGAUUGCUUUUCUGAAGGCAGUAUAGGGAACAUGAAUAUUCAAGAUGAAAUACAAAAAUUAUGUUUAAGGGUCAUAGUGUAUAAGUAGCUUCC | 0.43
GGCAGGGAGCAGAGGGCUUCUCGUUCAUGCACCCUUUGCCUGAACACCCAUGUAGCUGCUGUGUUGUGUAUAUAUUACUCUUAAGAGGAGUGUGUGUGUCUGUGUUUGUU | 1.01
CAGGGCUAGGGUAUCUGUUUAUCUUUCAAAAUGAUAAAUCUGACUCAAGAUUUUUUAUGUAUGUAUAAAUAAGUAUUUUGGUGUGCUACACAGCUUUUUCAAAUUACCAG | 0.542

Set 3
Target: Sal-like protein 4, full length isoform B (SALL4, Homo sapiens, UniProt Q9UJQ4-2, residues 1-616)
Method: universal PBM
Form: double-stranded DNA, one strand shown
Matrix: in vitro
Tested at: not given
Setting: 8-mer, flanks averaged, mean of replicates
Reading: higher = stronger binding
Sequence | E-score
AGCCTACG | -0.0985
CTGATTTC | -0.0403
AACCTACG | 0.0117
AAGCTAAA | 0.0751
GGAGCTCC | -0.292
AGTACAGG | 0.00612
AGGGACAC | -0.0728
AATTTATC | 0.329
CTGCCGTA | -0.137
CTTAGGCA | -0.16
ATGGGGTC | -0.26
GGGCTGAA | -0.22
CTAAGATC | -0.0047
ACGTTGGC | -0.102
AATTCGAC | -0.0986
TAACTTGA | 0.247
TACCTAAA | 0.137
AAGTTTAC | 0.141
ATGATAAA | 0.362
TCCGCGAA | -0.0382
ATATTTAA | 0.448
CCGCATAA | 0.206
GAAATCAA | 0.0379
CGATCCAC | -0.104
CGGACGAG | -0.217

Set 4
Target: ABI1, truncated, D143A, DHFR fusion (Arabidopsis thaliana)
Method: DHFR PCA, deep sequencing
Matrix: yeast
Setting: methotrexate growth selection, single substitutions
Together with: (+)-ABA 710 µM
Relative to: wild-type fitted maximum
Reading: higher = stronger binding
Starting sequence: PYL1, truncated, DHFR fusion (Arabidopsis thaliana); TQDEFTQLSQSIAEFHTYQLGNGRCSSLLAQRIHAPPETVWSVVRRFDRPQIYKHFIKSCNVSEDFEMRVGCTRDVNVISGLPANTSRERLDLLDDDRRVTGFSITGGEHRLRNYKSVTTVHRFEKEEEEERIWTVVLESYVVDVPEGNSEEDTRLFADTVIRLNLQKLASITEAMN
Variant | relative binding score
F5S | 102%
L138D | 1.13%
R32K | 101%
S59Q | 100%
I105R | -5.48%
I162V | 103%
Y115R | -9.06%
D144E | 93.9%
N165M | 6.83%
P83D | 89.2%
L20W | 94.4%

Set 5
Target: Histone acetyltransferase KAT6A, winged helix 2, GST fusion (KAT6A, Homo sapiens, UniProt Q92794, residues 85-181)
Method: protein binding microarray
Form: double-stranded DNA, one strand shown
Matrix: in vitro
Tested at: not given
Setting: 8-mer, flanks averaged, mean of 2 arrays, mostly near background
Relative to: not given
Reading: higher = stronger binding
Residues (chain): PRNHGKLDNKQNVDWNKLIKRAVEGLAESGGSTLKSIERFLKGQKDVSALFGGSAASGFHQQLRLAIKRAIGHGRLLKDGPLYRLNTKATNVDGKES
Sequence | E-score
ACCTGACC | -0.208
CCACAGCA | 0.163
ATAACACG | -0.104
GACGATTA | -0.0751
GAGGTTAA | 0.0362
GATCAGAC | -0.172
CCGTGTAC | -0.0725
ATAAGTCC | -0.0759
ACTTTAAG | 0.0486
CCTAAGGC | -0.148
ACGGGTGG | 0.0458
CAACTAAC | 0.00566
CTCTCGGC | 0.138
AAACGAAG | -0.0908
CCATGCAC | -0.0572
CTTGATCC | 0.122
ACATCGTA | -0.124
CCCTTACC | -0.239
GGCTTACA | -0.0614
ATCTGGCC | 0.0299
CCTTCATC | -0.044
ACTCGCAA | 0.0895
CTCCAGGA | 0.0326
AATTATTC | 0.012
GATACTCA | 0.0397

Set 6
Target: CCNB1, cyclin fold, Cln2 fusion (human)
Method: yeast growth competition, sequencing
Matrix: yeast
Setting: weak parent motif
Relative to: not given
Reading: higher = stronger binding
Starting sequence: WEE1 docking peptide (human); HKTFRKLRLFDTP
Variant | normalised enrichment score
L9P | 0.608
T3P | 0.59
T12P | 0.435
K2Q | 0.254
H1M | -0.309
L9T | -0.122
K6P | 1.43
T12K | -0.593
F10C | 0.423
R8S | 0.021
F10N | 0.328
H1Y | 0.392
R5I | -0.273
T3I | 0.0701
K6W | 0.829
T12A | 0.125
K2M | 0.663
D11C | 1.11
T12I | 1.4
P13S | 0.282
F4Y | 0.501
F10T | 0.47
L9V | 0.624
R5M | 0.513
L9W | 0.386

A few entries again (set 4):
Variant | relative binding score
F5S | 102%
L138D | 1.13%
R32K | 101%
S59Q | 100%
I105R | -5.48%
I162V | 103%
Y115R | -9.06%
D144E | 93.9%
N165M | 6.83%
P83D | 89.2%
L20W | 94.4%
